# Assay results from different studies.
# Each numbered part is a random draw from the data of one study; scales do not carry over between parts. Changes are numbered by the printed parent chain.

# Study 1 — technique: DHFR PCA, deep sequencing; sample: yeast; together with: (+)-ABA 2500 µM; baseline: wild-type fitted maximum; reading: higher = stronger binding
# Target: ABI1, truncated, D143A, DHFR fusion (Arabidopsis thaliana)
# Setting: methotrexate growth selection, single substitutions
# Starting sequence: PYL1, truncated, DHFR fusion (Arabidopsis thaliana); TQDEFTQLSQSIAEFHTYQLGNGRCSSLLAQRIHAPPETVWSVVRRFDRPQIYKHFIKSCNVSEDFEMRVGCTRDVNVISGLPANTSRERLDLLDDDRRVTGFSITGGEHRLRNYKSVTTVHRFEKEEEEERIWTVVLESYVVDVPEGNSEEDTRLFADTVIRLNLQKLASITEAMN; partner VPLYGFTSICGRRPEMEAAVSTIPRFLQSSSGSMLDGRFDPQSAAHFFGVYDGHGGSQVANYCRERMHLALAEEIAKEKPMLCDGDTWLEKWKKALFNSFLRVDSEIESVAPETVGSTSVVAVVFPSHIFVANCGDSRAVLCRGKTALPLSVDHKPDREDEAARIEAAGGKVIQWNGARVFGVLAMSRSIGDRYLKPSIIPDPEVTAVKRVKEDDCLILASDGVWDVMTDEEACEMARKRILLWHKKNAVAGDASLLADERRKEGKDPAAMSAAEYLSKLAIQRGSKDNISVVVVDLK
Variant,relative binding score [%]
H122E,97.3
K116A,101
E131A,107
I105G,51.3
R123W,93.5
T6R,104
L169I,73.8
S59P,56.5
R46Q,94.1
K58P,50.8
L28P,10.4
M68L,96.6
L29R,96.3
V78W,27.2
S87Q,14.2
G108P,61.1
A35Q,83

# Study 2 — technique: RNA Bind-n-Seq; form: RNA; sample: in vitro; tested at: not given; baseline: input RNA pool; reading: higher = stronger binding
# Target: RING finger protein unkempt homolog, zinc fingers 1-6, GST-SBP tag (UNK, Homo sapiens, UniProt Q9C0B0, residues 30-357)
# Setting: RNA with constant flanks, human and mouse sites, ends assumed
# All sequences stand within: GGGAGUUCUACAGUCCGACGAUC … CAACAGAGGAUUGAGCAUCA
# Construct (chain): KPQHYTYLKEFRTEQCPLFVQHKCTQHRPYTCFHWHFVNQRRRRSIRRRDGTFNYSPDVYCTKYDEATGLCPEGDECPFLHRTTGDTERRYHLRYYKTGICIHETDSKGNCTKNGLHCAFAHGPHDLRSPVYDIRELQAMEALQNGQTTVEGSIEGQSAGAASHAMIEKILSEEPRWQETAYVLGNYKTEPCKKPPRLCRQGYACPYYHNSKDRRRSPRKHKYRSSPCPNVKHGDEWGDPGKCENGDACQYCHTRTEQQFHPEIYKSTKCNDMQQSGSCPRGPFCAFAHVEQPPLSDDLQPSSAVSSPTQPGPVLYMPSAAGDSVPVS
Oligonucleotide,bound/input enrichment [ratio]
UUAAUGUCUGCCAGAACACAAUUUAUAUGCCUUAUUGGCUUCAUUAAACUUUUAGAAAACUUUAGCAUUUGUUACUUUUUUCCAUUGCGUUUACUUUCAAAUGCACCUAAUGAAUUUGUC,6.32
GGAGCAUUAAUUGCUUCUCUUAUCAACUGCUACAUCAGAGACAACGCCGCCGUAGACGGCAUUAGCUUACAUCUGCAGGACACCUGUCCGCUUCUGUAUAGCACAGACGAUGCAGUUUGU,0.18
CUGAGGAACAAUCUCCGCAGCAUAGAGUGGGAUCUGGAGGACCUCGAUGAAACCAUCAGCAUAGUUGAAGCAAAUCCUAGAAAAUUCAACUUGGAUGCAACUGAAUUGAGCAUAAGAAAA,0.438
CAUUUGCGGAGGAACAUUGGUGUUACAGCAGUGGCAUUUAAUAAGGAACUUGAUCCUAUACAGAAACUCUUUGUGGACAAGAUUAGAGAAUACAAAUCUAAGCGACAGACAUCUGGAGGA,0.196
AAGACGCCCAUCCGGAACAGGGCCUUCUACAUGGAGGAGGGCGUGCCCUAUUGCGAGCGAGACUAUGAGAAGAUGUUUGGCACGAAAUGCCAUGGCUGUGACUUCAAGAUCGACGCUGGG,0.0828
GUUAUGGAAAUAAAUAAUGAAGAGAAACCAGACCCGGGAGCAGAAGAGGAGUUUGGAGGUCUUGUGUCUGCUAACCUUAUACUUUUGAGGAACAGGCUCCUAGACAUCUUGCUAAAGCUG,0.407
CAACAGAGUCUAGGAUGGGUUCAUUACAUGAUUCAUGAGCCAGAACCGCAUAUUCUUCUCUUUAGACGACCUCUUCCAAAAGAACAACAAAAAUGAAGUGCAGCUGGGAUCAUCUAAUCU,0.313
AGCUCCCCAUAUUUCCGGGACCAUUCAGCGUUAAGUACCAUGAGUGGCUUGUCAAUAUCAGUGAUUAAAAAUCCCAAUGUGUUUGAGCAGUUGCUUUCUUUUUGUUACACUGGAAGAAUG,0.21

# Study 3 — target: CCNB3, cyclin fold, Cln2 fusion (human); technique: yeast growth competition, sequencing; sample: yeast; setting: weak parent motif; baseline: not given; reading: higher = stronger binding
# Starting sequence: CCP110 docking peptide (human); EKVKRRLDLDIDG
Variant,normalised enrichment score
EKVKARADLDIDG [R5A L7A],0.0645
EKVKRRLALDIDG [D8A],0.289
EKVKRRLDLDIDA [G13A],0.601
EKVKARLDLDIDG [R5A],0.212
EKVKRRLDFDIDG [L9F],2.53
EKVKRRLDADIDG [L9A],-0.0943
EAVKRRLDLDIDG [K2A],0.434
EKVKKRLDLDIDG [R5K],0.101
EKVKRRLDLAIDG [D10A],0.444
EKVKRALDLDIDG [R6A],0.107

# Study 4 — technique: universal PBM; form: double-stranded DNA, one strand shown; sample: in vitro; tested at: 600 nM; reading: higher = stronger binding
# Target: Sal-like protein 4, full length isoform A (SALL4, Homo sapiens, UniProt Q9UJQ4, residues 1-1053)
# Sequence of UniProt Q9UJQ4 (whole entry, looked up): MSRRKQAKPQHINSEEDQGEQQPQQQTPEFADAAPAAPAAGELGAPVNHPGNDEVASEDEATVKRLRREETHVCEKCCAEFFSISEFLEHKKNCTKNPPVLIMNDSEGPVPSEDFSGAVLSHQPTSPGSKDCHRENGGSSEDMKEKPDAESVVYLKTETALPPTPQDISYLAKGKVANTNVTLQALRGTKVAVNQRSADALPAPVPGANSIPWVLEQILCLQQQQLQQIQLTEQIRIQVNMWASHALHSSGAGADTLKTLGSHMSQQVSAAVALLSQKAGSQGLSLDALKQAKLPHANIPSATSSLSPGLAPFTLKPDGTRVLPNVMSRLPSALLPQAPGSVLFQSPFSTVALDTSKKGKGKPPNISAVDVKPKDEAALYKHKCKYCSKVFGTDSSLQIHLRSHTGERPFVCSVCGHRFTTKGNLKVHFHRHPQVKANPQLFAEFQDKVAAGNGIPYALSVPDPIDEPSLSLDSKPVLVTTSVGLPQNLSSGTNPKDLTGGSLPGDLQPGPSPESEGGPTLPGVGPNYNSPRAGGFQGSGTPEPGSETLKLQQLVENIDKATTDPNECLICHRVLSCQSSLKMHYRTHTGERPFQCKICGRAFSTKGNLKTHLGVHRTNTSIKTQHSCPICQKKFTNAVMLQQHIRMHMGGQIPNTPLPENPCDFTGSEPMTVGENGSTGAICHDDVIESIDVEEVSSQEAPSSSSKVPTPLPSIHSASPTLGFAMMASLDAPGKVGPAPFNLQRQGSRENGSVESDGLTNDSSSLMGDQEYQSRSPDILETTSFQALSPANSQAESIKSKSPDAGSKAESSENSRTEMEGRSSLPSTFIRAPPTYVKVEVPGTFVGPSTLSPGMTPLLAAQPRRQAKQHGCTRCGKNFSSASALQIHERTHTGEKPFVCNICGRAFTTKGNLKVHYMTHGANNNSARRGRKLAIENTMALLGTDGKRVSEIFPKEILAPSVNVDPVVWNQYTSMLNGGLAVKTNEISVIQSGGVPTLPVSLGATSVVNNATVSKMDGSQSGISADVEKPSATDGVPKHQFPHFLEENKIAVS
# Setting: 8-mer, flanks averaged, mean of replicates
Oligonucleotide,E-score
CATTTACC,0.208
GACGGTTA,-0.0712
AGGACAAG,-0.0232
ACGAATTG,0.0777
AATTGTAG,0.251
ATCATAAC,0.41
GATCTGCA,-0.113
CCGAGAAG,-0.178
AGACTGAA,0.037
GATAGGTA,0.17
ATCCTAAA,0.0224
AGTTCTCC,-0.247
CTGACTAA,0.0935
AAGGACAT,0.0459
CATAGTTC,0.0731
CCATGTCG,-0.137
ACTACTTA,0.174
AACCAACA,0.0993
GGACGTCC,-0.155
GTACACTA,0.0777
CGCCTGCC,-0.284
ACCTAAGC,-0.122
ATGCTTTA,0.144
GGCTGACC,-0.242
CTAACGAG,0.0734

# Study 5 — technique: Sort-seq; refers to: YFP reporter; sample: E. coli; setting: PhoQ-PhoP variant library; together with: 10 µM Mg2+; baseline: high Mg2+ state; reading: higher = stronger signaling
# Molecule: PhoQ, residues 284 288 289 292 302 303 SLCLSL
target,fold induction
"PhoP, residues 12 14 15 18 19 VGHWL (Escherichia coli, UniProt P23836)",1.85
"PhoP, residues 12 14 15 18 19 NFFVT (Escherichia coli, UniProt P23836)",0.205
"PhoP, residues 12 14 15 18 19 LHHYF (Escherichia coli, UniProt P23836)",0.0388
"PhoP, residues 12 14 15 18 19 TPWTL (Escherichia coli, UniProt P23836)",15.9

# For quick reference, copied from above (study 2):
Oligonucleotide,bound/input enrichment [ratio]
UUAAUGUCUGCCAGAACACAAUUUAUAUGCCUUAUUGGCUUCAUUAAACUUUUAGAAAACUUUAGCAUUUGUUACUUUUUUCCAUUGCGUUUACUUUCAAAUGCACCUAAUGAAUUUGUC,6.32
GGAGCAUUAAUUGCUUCUCUUAUCAACUGCUACAUCAGAGACAACGCCGCCGUAGACGGCAUUAGCUUACAUCUGCAGGACACCUGUCCGCUUCUGUAUAGCACAGACGAUGCAGUUUGU,0.18
CUGAGGAACAAUCUCCGCAGCAUAGAGUGGGAUCUGGAGGACCUCGAUGAAACCAUCAGCAUAGUUGAAGCAAAUCCUAGAAAAUUCAACUUGGAUGCAACUGAAUUGAGCAUAAGAAAA,0.438
CAUUUGCGGAGGAACAUUGGUGUUACAGCAGUGGCAUUUAAUAAGGAACUUGAUCCUAUACAGAAACUCUUUGUGGACAAGAUUAGAGAAUACAAAUCUAAGCGACAGACAUCUGGAGGA,0.196
AAGACGCCCAUCCGGAACAGGGCCUUCUACAUGGAGGAGGGCGUGCCCUAUUGCGAGCGAGACUAUGAGAAGAUGUUUGGCACGAAAUGCCAUGGCUGUGACUUCAAGAUCGACGCUGGG,0.0828
GUUAUGGAAAUAAAUAAUGAAGAGAAACCAGACCCGGGAGCAGAAGAGGAGUUUGGAGGUCUUGUGUCUGCUAACCUUAUACUUUUGAGGAACAGGCUCCUAGACAUCUUGCUAAAGCUG,0.407
CAACAGAGUCUAGGAUGGGUUCAUUACAUGAUUCAUGAGCCAGAACCGCAUAUUCUUCUCUUUAGACGACCUCUUCCAAAAGAACAACAAAAAUGAAGUGCAGCUGGGAUCAUCUAAUCU,0.313
AGCUCCCCAUAUUUCCGGGACCAUUCAGCGUUAAGUACCAUGAGUGGCUUGUCAAUAUCAGUGAUUAAAAAUCCCAAUGUGUUUGAGCAGUUGCUUUCUUUUUGUUACACUGGAAGAAUG,0.21
